# Experimental data collected from several papers.
# Values joined by “and” are separate records of one study, mostly repeats; a detail may differ. Numbers after ± are the reported error.
# Cell line: MDA-MB-231
Structure (SMILES),effect on,method,concentration,time,setting,endpoint,result
C[C@@H]1CC[C@@H]([C@](O)(CNCc2cccc(F)c2)COCc2ccccc2)[C@H](OCc2ccccc2)C1,cell growth or viability,MTT,30 µM,72 h,,inhibition,96.1%
COc1ccccc1-c1ccncc1C(=O)Nc1nnc(OCc2ccc(Cl)cc2)s1,,,3 µM,,,colony count,22 and 33.5
C[C@@H]1CC[C@@H]([C@](O)(COCc2ccccc2)Cn2cnc3ccccc32)[C@H](OCc2ccccc2)C1,cell growth or viability,MTT,10 µM,72 h,,inhibition,84.7%
CCc1c(C)c2ccc(OC(C)C)c(C)c2oc1=O,cell growth or viability,MTT,1000 µg/mL,,,viability,2.95%
CC(=O)OCC1=C2C(C)=CC(C)=[N+]2[B-](C)(C)n2c(C)cc(C)c21,cell viability,MTT,concentration not given,4 h,irradiated 15 min up to 470 nm,EC50,> 50 µM
C[C@@H]1CC[C@@H]([C@](O)(CNCc2ccccc2F)COCc2ccccc2)[C@H](OCc2ccccc2)C1,cell growth or viability,MTT,10 µM,72 h,,inhibition,94.4%
CCCNC(=O)[C@H]1O[C@@H]1C(=O)N[C@H](C(=O)N1CCC[C@H]1C(=O)OCC1=C2C(C)=CC(C)=[N+]2[B-](CC)(CC)n2c(C)cc(C)c21)[C@@H](C)CC,cell growth or viability,MTT,,,dark,EC50,> 50 µM
Oc1ccnc(-c2cc(O)ccn2)c1.[Cl-].[Cl-].[Ru+2].c1ccc(-c2ccnc3c2ccc2c(-c4ccccc4)ccnc23)cc1.c1ccc(-c2ccnc3c2ccc2c(-c4ccccc4)ccnc23)cc1,cell growth or viability,,,,dark,EC50,30 µM
CCCNC(=O)[C@H]1O[C@@H]1C(=O)N[C@H](C(=O)N1CCC[C@H]1C(=O)OCC1=C2C(C)=CC(C)=[N+]2[B-](F)(F)n2c(C)cc(C)c21)[C@@H](C)CC,cell growth or viability,MTT,,,dark,EC50,> 50 µM
COc1ccc(CNC[C@@](O)(COCc2ccc(F)cc2)[C@@H]2CC[C@@H](C)C[C@H]2OCc2ccc(F)cc2)cc1,cell growth or viability,MTT,30 µM,72 h,,inhibition,99%
CC(=O)OC[C@H]1O[C@@H](n2cc(CSc3nc4ccccc4n3Cc3cn([C@@H]4O[C@H](COC(C)=O)[C@@H](OC(C)=O)C(OC(C)=O)[C@H]4OC(C)=O)nn3)nn2)[C@H](OC(C)=O)C(OC(C)=O)[C@@H]1OC(C)=O (stereo in doubt),,MTT,250 ppm,,,cytotoxicity,93%
CCCNC(=O)[C@H]1O[C@@H]1C(=O)N[C@H](C(=O)N1CCC[C@H]1C(=O)OCC1=C2C(C)=CC(C)=[N+]2[B-](C)(C)n2c(C)cc(C)c21)[C@@H](C)CC,cell viability,MTT,,4 h,dark,EC50,> 100 µM
CC(=O)[O][Pd][c]1ccccc1-n1nc(C)cc1C.CC(=O)[O][Pd][c]1ccccc1-n1nc(C)cc1C,,FLICA flow cytometry,25 µM,24 h,,caspase-3/7 active cells,34.1 ± 2.26%

# Excerpt of the above:
Structure (SMILES),effect on,method,concentration,time,setting,endpoint,result
CCc1c(C)c2ccc(OC(C)C)c(C)c2oc1=O,cell growth or viability,MTT,1000 µg/mL,,,viability,2.95%
CC(=O)OCC1=C2C(C)=CC(C)=[N+]2[B-](C)(C)n2c(C)cc(C)c21,cell viability,MTT,concentration not given,4 h,irradiated 15 min up to 470 nm,EC50,> 50 µM
